Results pooled from the literature.
Numbered parts are unrelated; each lists some results of a single study. Positions count from the first letter of the parent shown.

Study 1
Target: CCNF, cyclin fold, Cln2 fusion (human)
Technique: yeast growth competition, sequencing
Sample: yeast
Setting: strong parent motif
Baseline: not given
Reading: higher = stronger binding
Quantity: normalised enrichment score
Starting sequence: viral docking peptide; KGVKRKLFAEDSS
Substitution = KGVKRKHFAEDSS [L7H]; value = 0.0437
Substitution = KGVKRKLFAEDFS [S12F]; value = 8.01
Substitution = KGVMRKLFAEDSS [K4M]; value = 7.27
Substitution = KGFKRKLFAEDSS [V3F]; value = 4.7
Substitution = KGVKRKLSAEDSS [F8S]; value = 0.392
Substitution = KGVKRKLFAEDGS [S12G]; value = 7.56
Substitution = KGVKRKLFYEDSS [A9Y]; value = 8.24
Substitution = KGVKRKLFAEDCS [S12C]; value = 7.99
Substitution = KGVKRKLFAEQSS [D11Q]; value = 7.64
Substitution = KQVKRKLFAEDSS [G2Q]; value = 8.24
Substitution = KGDKRKLFAEDSS [V3D]; value = 0.334
Substitution = KGVKKKLFAEDSS [R5K]; value = 5.05
Substitution = KGVHRKLFAEDSS [K4H]; value = 7.44
Substitution = KGVKRFLFAEDSS [K6F]; value = 2.32
Substitution = KEVKRKLFAEDSS [G2E]; value = 7.66
Substitution = KGVKRLLFAEDSS [K6L]; value = 5.97
Substitution = KGVKTKLFAEDSS [R5T]; value = 0.628

Study 2
Target: UDP-N-acetylglucosamine--peptide N-acetylglucosaminyltransferase 110 kDa subunit (OGT, Homo sapiens, UniProt O15294)
Sequence of UniProt O15294 (whole entry, looked up): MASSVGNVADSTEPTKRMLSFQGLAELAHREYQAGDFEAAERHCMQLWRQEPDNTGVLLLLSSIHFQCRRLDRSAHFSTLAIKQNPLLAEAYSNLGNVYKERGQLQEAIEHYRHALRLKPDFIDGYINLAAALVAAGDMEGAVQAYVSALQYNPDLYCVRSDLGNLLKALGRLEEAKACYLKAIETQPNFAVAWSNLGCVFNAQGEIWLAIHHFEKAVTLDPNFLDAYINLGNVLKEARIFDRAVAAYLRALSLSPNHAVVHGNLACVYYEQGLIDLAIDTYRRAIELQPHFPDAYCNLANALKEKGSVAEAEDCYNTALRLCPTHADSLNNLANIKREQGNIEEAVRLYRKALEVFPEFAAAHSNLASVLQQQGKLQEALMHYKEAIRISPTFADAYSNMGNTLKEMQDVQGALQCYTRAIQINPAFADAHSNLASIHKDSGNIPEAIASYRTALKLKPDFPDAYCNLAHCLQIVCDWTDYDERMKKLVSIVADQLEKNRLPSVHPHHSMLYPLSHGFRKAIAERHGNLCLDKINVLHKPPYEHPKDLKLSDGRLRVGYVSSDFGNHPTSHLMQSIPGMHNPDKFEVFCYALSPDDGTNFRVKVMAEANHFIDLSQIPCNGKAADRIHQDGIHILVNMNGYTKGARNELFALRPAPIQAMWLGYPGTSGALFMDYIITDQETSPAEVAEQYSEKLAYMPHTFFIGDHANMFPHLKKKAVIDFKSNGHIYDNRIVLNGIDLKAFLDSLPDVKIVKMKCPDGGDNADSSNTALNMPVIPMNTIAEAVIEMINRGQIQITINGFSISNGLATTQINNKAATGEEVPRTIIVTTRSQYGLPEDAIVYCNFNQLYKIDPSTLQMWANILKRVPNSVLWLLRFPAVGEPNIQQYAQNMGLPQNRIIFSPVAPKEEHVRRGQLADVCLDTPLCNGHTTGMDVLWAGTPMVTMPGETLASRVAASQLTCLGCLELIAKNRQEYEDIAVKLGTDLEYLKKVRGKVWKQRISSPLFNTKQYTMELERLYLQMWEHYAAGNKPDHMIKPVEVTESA
Read-out: binding
Technique: phage display NGS
Molecule type: peptide
Concentration: concentration not given
Setting: panning round 2
Baseline: input library
Quantity: enrichment fold change
Sequence = HWVGTTHHSTMHNHD; value = 7.15
Sequence = TTHYLPVYQIELKNA; value = 10
Sequence = SSNEPHYPPKYQMVI; value = 12.5
Sequence = GMRQPPYMPLYQIEV; value = 22.1
Sequence = TWLDHFPWHTYHPRD; value = 12.4
Sequence = HYERHQSHPWEEFMH; value = 6.22

Study 3
Target: BATF, bZIP domain (human)
Technique: DHFR protein complementation
Sample: yeast
Setting: single substitutions, most at no-binding floor
Baseline: wild-type JUN-FOS pair
Reading: higher = stronger binding
Quantity: binding fitness
Starting sequence: JUN, bZIP domain (human); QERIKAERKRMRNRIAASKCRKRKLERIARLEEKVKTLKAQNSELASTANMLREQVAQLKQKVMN; partner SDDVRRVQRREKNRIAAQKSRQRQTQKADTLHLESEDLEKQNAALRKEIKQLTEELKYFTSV
Substitution = A40P; value = -1.22 natural log
Substitution = A49K; value = -0.17 natural log
Substitution = Q55E; value = -0.0747 natural log
Substitution = E32V; value = -0.0446 natural log
Substitution = R30C; value = 0.0016 natural log
Substitution = A57H; value = -0.0524 natural log
Substitution = Q58W; value = -0.165 natural log
Substitution = L31R; value = -0.324 natural log

Study 4
Target: tungstate, free oxyanion
Technique: microfluidic competitive inhibition
Sample: in vitro, cell-free expressed
Concentration: not given
Setting: derived from inhibition constants, unchanged parent 2230 nM
Reading: lower = stronger binding
Quantity: oxyanion analog dissociation constant
Starting sequence: PafA, mature enzyme, eGFP fusion (Elizabethkingia meningoseptica, UniProt Q9KJX5); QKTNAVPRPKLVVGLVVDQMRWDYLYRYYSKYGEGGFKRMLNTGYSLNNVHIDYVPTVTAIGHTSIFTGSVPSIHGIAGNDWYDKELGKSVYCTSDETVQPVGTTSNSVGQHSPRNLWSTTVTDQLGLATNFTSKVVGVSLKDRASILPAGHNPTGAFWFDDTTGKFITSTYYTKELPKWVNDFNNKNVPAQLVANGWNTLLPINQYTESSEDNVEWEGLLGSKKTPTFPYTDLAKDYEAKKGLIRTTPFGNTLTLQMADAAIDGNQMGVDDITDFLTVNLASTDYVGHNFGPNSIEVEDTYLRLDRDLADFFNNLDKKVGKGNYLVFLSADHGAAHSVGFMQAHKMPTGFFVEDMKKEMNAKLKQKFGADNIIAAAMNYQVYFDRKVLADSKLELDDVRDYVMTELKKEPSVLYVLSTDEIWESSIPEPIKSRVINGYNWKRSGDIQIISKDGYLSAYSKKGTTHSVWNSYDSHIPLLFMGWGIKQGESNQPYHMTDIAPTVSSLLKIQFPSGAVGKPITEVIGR
Substitution = H75G; value = 2230 nM
Substitution = K89G; value = 2840 nM
Substitution = G103A; value = 2050 nM
Substitution = L148G; value = 566 nM
Substitution = G35V; value = 2690 nM
Substitution = A336V; value = 1150 nM
Substitution = L364V; value = 2800 nM
Substitution = V194A; value = 2190 nM
Substitution = V215A; value = 1970 nM

For quick reference, copied from above (study 1):
Substitution = KGVKRKHFAEDSS [L7H]; value = 0.0437
Substitution = KGVKRKLFAEDFS [S12F]; value = 8.01
Substitution = KGVMRKLFAEDSS [K4M]; value = 7.27
Substitution = KGFKRKLFAEDSS [V3F]; value = 4.7
